Measurements from different studies.
Numbered parts are unrelated; each lists some results of a single study. Positions count from the first letter of the parent shown.

Study 1
Target: Protein C-ets-1 (ETS1, Homo sapiens, UniProt P14921, residues 1-441, full length assumed)
Chain of UniProt P14921 (whole entry, looked up): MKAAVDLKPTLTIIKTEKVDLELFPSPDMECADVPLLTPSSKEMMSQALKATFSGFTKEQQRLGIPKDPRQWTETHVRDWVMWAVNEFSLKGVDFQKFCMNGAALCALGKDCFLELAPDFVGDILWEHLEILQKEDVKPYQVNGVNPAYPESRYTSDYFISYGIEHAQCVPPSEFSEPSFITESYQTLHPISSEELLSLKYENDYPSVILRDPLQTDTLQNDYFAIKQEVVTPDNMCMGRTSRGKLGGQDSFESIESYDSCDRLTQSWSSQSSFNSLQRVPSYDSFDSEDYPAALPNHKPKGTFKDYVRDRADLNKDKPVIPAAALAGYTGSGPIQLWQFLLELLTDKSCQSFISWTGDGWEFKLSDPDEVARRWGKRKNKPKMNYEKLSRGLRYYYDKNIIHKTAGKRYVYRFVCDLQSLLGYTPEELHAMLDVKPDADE
Technique: protein-binding microarray
Form: double-stranded DNA, one strand shown
Medium: in vitro
Concentration: not given
Setting: k-mer, scored over probes, only values ≥0.25
Reading: higher = stronger binding
| Sequence | E-score |
| --- | --- |
| AAACAGGA | 0.433 |
| CCGGTTTC | 0.264 |
| AGGATATC | 0.368 |
| GGAAGTGA | 0.467 |
| ACATCCTA | 0.4 |
| CTTCCTGC | 0.475 |
| ACGGGATG | 0.361 |
| CGAACGGA | 0.337 |
| ACCGTCCG | 0.27 |
| CAGTTCCG | 0.438 |
| CACGGGAA | 0.304 |
| CGGAACCC | 0.347 |
| GATTTCCC | 0.343 |
| GCGCTTCC | 0.435 |
| CATGTAGG | 0.277 |
| ACGGGATA | 0.297 |

Study 2
Target: Sal-like protein 4, full length isoform B (SALL4, Homo sapiens, UniProt Q9UJQ4-2, residues 1-616)
Technique: universal PBM
Form: double-stranded DNA, one strand shown
Medium: in vitro
Concentration: not given
Setting: 8-mer, flanks averaged, mean of replicates
Reading: higher = stronger binding
Residues (chain): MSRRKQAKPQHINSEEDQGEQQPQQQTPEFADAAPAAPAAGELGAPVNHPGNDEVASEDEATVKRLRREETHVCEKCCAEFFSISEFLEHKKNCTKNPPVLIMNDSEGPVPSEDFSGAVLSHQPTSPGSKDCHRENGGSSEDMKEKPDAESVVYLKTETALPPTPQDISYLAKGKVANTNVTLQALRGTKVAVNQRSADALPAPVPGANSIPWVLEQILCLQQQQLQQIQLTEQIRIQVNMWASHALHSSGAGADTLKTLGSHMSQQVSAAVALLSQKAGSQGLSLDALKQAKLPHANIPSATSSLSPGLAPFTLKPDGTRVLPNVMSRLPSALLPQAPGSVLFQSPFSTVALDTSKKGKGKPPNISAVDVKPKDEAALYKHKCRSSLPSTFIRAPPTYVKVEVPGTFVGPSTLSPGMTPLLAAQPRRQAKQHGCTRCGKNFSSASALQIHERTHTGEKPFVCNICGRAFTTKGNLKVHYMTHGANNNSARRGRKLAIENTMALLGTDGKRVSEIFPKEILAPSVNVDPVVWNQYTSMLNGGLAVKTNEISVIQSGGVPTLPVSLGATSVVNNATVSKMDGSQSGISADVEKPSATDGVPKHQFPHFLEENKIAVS
| Sequence | E-score |
| --- | --- |
| TGGAGCAA | 0.0331 |
| CAGCTAGG | -0.201 |
| AAATGAGC | 0.155 |
| CGCCATAA | 0.153 |
| GATATTCC | 0.122 |
| CAACTCCA | -0.0987 |
| ACCTTATA | 0.246 |
| CTCGAGCA | -0.027 |
| ACACTGAT | 0.0558 |
| ACTGAGAC | -0.144 |
| CACTACCC | -0.179 |
| ACACACAA | 0.175 |
| CTTCTTCC | -0.137 |
| CCACACAC | -0.0962 |
| ACGTCTCC | -0.0362 |
| AGTTGGAC | -0.0121 |

Study 3
Target: CCNA2, cyclin fold, Cln2 fusion (human)
Technique: yeast growth competition, sequencing
Medium: yeast
Setting: strong parent motif
Reference: not given
Reading: higher = stronger binding
Starting sequence: WEE1 docking peptide (human); HKTFRKLRLFDTP
| Change | normalised enrichment score |
| --- | --- |
| HKTFRDLRLFDTP [K6D] | 1.3 |
| HKTFRGLRLFDTP [K6G] | 2.63 |
| HKTFRKLKLFDTP [R8K] | 1.4 |
| HKTFRKLRLFDLP [T12L] | 0.837 |
| HKTFRKLRLFWTP [D11W] | 1.54 |
| HKTFRNLRLFDTP [K6N] | 2.02 |
| HKTFRKLRLFDYP [T12Y] | 0.833 |
| HKTFRKRRLFDTP [L7R] | 1.06 |
| HKTFSKLRLFDTP [R5S] | 1.23 |
| HKTFRKLRLFPTP [D11P] | 2.17 |
| HKTVRKLRLFDTP [F4V] | 1.28 |
| HKTFRKLRPFDTP [L9P] | 0.996 |
| HKTFRKLRLLDTP [F10L] | 1.03 |
| HKTFRKLRLFDTC [P13C] | 2.15 |

Study 4
Target: Histone acetyltransferase KAT6A, winged helix 1, GST fusion (KAT6A, Homo sapiens, UniProt Q92794, residues 1-85)
Technique: protein binding microarray
Form: double-stranded DNA, one strand shown
Medium: in vitro
Concentration: not given
Setting: 8-mer, flanks averaged, mean of 2 arrays, mostly near background
Reference: not given
Reading: higher = stronger binding
Target sequence (chain): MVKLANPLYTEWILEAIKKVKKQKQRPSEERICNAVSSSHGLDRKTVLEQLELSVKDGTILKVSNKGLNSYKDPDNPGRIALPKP
| Sequence | E-score |
| --- | --- |
| CAGGACGA | -0.131 |
| CGAGAGTC | -0.0354 |
| ACTGCTAT | -0.0154 |
| CGATTAGA | -0.0364 |
| CCTGAGCG | 0.274 |
| GGTAATTA | 0.0531 |
| TACCGTGA | 0.212 |
| AAGGCTGA | -0.224 |
| AAGAAAGG | -0.209 |
| AAAGGGCT | -0.178 |
| ATCGTGGC | -0.0811 |
| GAATCCAA | -0.145 |
| ATTAGGGC | -0.123 |
| AAGTGTTC | -0.0836 |
| CTTCGCGA | 0.0784 |
| AGGATTAT | -0.174 |
| CCAGGCAA | -0.0814 |
| CCCGTACA | 0.281 |
| CCTGATCA | -0.238 |
| AGCGCTTA | 0.32 |
| CTAGGACA | -0.142 |

Study 5
Target: Prothrombin, mature alpha-thrombin (F2, Homo sapiens, UniProt P00734)
Technique: aptamer microarray, sandwich
Form: DNA with 2'F-ANA
Medium: in vitro
Concentration: 200 nM
Setting: whole 15-mer aptamer, many near background
Together with: Cy3 exosite-II aptamer, 400 nM
Reading: higher = stronger binding
Sequence: GGTTGGTGTGGTTGG
| Modification | mean fluorescence intensity [a.u.] |
| --- | --- |
| 2'F-ANA at 1 2 3 7 8 14 | 86.7 |
| 2'F-ANA at 1 2 3 5 6 7 8 9 10 11 12 13 15 | 54.9 |
| 2'F-ANA at 1 3 4 7 8 9 11 12 15 | 363 |
| 2'F-ANA at 1 4 8 9 10 14 15 | 45.5 |
| 2'F-ANA at 1 2 5 8 11 12 13 | 97.2 |
| 2'F-ANA at 2 3 4 5 6 7 9 12 13 14 15 | 49.2 |
| 2'F-ANA at 1 2 3 4 5 6 7 8 9 10 11 13 | 63.4 |
| 2'F-ANA at 1 2 5 8 12 13 15 | 101 |
| 2'F-ANA at 1 2 3 7 8 9 12 14 15 | 106 |
| 2'F-ANA at 1 2 3 6 7 10 11 15 | 164 |
| 2'F-ANA at 2 4 7 9 10 11 14 15 | 64.1 |
| 2'F-ANA at 1 2 3 4 5 7 8 9 10 13 | 48.9 |
| 2'F-ANA at 1 2 7 10 12 14 15 | 49.7 |
| 2'F-ANA at 1 3 4 5 9 10 11 12 13 | 46 |
| 2'F-ANA at 1 4 6 7 8 9 10 11 12 14 | 48 |
| 2'F-ANA at 1 5 6 8 9 12 | 137 |
| 2'F-ANA at 1 2 3 4 5 7 11 12 14 15 | 47.1 |
| 2'F-ANA at 3 4 8 10 12 | 402 |
| 2'F-ANA at 1 3 6 7 8 10 11 12 | 105 |
| 2'F-ANA at 2 3 6 12 14 15 | 435 |
| 2'F-ANA at 3 5 6 11 14 15 | 51.4 |
| 2'F-ANA at 1 4 11 13 14 | 45.9 |
| 2'F-ANA at 1 2 5 6 9 10 11 13 15 | 45.5 |
| 2'F-ANA at 3 4 5 6 8 | 109 |
| 2'F-ANA at 6 8 9 12 13 14 | 202 |

Study 6
Target: ABI1, truncated, D143A, DHFR fusion (Arabidopsis thaliana)
Technique: DHFR PCA, deep sequencing
Medium: yeast
Setting: methotrexate growth selection, single substitutions
Together with: (+)-ABA 0.39 µM
Reference: wild-type fitted maximum
Reading: higher = stronger binding
Starting sequence: PYL1, truncated, DHFR fusion (Arabidopsis thaliana); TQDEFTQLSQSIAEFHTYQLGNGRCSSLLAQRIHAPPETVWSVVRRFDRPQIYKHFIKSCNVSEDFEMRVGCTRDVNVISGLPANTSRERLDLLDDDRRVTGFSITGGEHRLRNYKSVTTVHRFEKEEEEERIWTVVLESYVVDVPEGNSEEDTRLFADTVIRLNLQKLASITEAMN; partner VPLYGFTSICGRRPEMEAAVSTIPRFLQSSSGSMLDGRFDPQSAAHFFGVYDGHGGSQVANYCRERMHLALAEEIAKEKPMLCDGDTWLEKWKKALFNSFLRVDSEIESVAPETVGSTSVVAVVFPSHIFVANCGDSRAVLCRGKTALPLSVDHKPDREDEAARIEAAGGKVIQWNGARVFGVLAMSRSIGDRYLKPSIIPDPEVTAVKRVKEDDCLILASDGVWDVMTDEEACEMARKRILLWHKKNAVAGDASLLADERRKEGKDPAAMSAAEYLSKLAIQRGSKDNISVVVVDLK
| Change | relative binding score [%] |
| --- | --- |
| R88P | -4.99 |
| E174C | -13.2 |
| I12C | 1.49 |
| A30Y | 30.2 |
| G81A | 8.78 |
| T17K | 18.9 |
| S59I | 10 |
| M68F | 18.6 |
| T86A | 16 |
| T173G | -3.44 |
| Y18D | -10.9 |
| C72G | -1.56 |
| G71A | -4.3 |
| R132F | 26.6 |
| L91T | -8.42 |
| I57C | -7.28 |
